Assay results from different studies.
Each numbered part is a random draw from the data of one study; scales do not carry over between parts.

Series 1
Target: Interferon regulatory factor 7, full length, phosphomimetic (IRF7, Homo sapiens, UniProt Q92985, residues 1-503, S471D/S472D/S475D/S476D/S477D/S483D/S484D/S487D)
Technique: protein-binding microarray
Molecule type: double-stranded DNA, one strand shown
Sample: in vitro
Tested at: 2200 nM top
Setting: 60-bp whole probe
Together with: salmon DNA 0.4 mg/ml
Relative to: random background probes
Direction: higher = stronger binding
All sequences stand within: GCCTAGCAC … GTCTTGATTCGCTTGACGCTGCTG
Residues (chain): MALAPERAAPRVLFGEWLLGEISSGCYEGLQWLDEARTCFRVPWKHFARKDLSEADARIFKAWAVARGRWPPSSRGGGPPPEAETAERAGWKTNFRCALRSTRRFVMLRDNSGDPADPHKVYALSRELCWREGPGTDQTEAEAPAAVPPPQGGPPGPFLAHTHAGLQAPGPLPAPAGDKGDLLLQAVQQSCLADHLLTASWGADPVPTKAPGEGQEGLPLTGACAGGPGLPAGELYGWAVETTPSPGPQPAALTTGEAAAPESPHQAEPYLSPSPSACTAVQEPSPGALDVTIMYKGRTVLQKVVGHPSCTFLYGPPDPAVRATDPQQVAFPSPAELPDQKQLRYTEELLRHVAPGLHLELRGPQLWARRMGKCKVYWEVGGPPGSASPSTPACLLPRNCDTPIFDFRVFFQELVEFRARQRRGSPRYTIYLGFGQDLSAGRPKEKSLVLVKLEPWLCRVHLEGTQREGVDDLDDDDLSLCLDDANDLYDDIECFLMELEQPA
Oligonucleotide | fitted relative affinity
TCATGAATGCCCTCTAACACTGTGCTA | 0.598 z-score
TCATAAACCATTTTGGTACTGTGCTAG | 0.263 z-score
TCACATATAATTTTGTCACTGTGCTAG | 0.92 z-score
TTATGTCTCGGACTGGGTTAGTGCTAG | 0.359 z-score
TTAGGTATCGACAATCGGTTAGTGCTA | 0.33 z-score
GACGGATTGCTTTTCCTGACGTGCTAG | 1.05 z-score

Series 2
Target: Sal-like protein 4, full length isoform A (SALL4, Homo sapiens, UniProt Q9UJQ4, residues 1-1053)
Sequence of UniProt Q9UJQ4 (whole entry, looked up): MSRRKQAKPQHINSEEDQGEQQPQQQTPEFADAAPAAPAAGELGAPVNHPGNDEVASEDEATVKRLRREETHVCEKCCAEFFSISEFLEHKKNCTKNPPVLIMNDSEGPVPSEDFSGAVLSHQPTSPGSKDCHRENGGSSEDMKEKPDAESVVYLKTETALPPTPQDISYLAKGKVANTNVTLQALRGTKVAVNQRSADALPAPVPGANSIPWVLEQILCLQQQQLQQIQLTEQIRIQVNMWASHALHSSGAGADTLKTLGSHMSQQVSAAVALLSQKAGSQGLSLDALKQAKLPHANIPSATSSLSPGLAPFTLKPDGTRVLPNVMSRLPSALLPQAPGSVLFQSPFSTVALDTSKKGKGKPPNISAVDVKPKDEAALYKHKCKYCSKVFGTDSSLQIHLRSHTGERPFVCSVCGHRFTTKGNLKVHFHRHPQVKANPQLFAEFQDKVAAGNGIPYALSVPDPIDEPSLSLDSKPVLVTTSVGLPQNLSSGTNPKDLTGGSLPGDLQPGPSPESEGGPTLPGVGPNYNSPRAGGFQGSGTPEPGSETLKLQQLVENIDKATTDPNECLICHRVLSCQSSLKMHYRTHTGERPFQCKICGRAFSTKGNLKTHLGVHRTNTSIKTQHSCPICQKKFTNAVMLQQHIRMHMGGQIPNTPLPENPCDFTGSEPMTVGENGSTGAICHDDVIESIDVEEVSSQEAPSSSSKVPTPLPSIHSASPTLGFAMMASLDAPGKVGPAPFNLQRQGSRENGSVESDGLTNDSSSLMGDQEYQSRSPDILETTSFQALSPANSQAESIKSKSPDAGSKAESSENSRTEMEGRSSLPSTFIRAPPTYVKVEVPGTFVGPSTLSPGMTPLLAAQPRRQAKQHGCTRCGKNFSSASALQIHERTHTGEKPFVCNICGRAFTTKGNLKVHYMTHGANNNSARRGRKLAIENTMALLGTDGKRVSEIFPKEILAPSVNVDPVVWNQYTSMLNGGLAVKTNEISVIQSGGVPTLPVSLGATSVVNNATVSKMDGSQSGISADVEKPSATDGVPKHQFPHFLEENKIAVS
Technique: universal PBM
Molecule type: double-stranded DNA, one strand shown
Sample: in vitro
Tested at: 600 nM
Setting: 8-mer, flanks averaged, mean of replicates
Direction: higher = stronger binding
Oligonucleotide | E-score
AGCGCTGA | -0.183
GTCGTTTA | 0.141
GGGAGCAC | -0.257
AACTTGGC | -0.0779
AAGCAACG | -0.00673
AAACGCTT | 0.061
GGCGAGAA | -0.111
GCATTAGA | 0.134
CGACCTCA | -0.143

Series 3
Target: RING finger protein unkempt homolog, zinc fingers 1-6, GST-SBP tag (UNK, Homo sapiens, UniProt Q9C0B0, residues 30-357)
Technique: RNA Bind-n-Seq
Molecule type: RNA
Sample: in vitro
Tested at: not given
Setting: RNA with constant flanks, human-mouse chimeric sites, ends assumed
Relative to: input RNA pool
Direction: higher = stronger binding
All sequences stand within: GGGAGUUCUACAGUCCGACGAUC … CAACAGAGGAUUGAGCAUCA
Residues (chain): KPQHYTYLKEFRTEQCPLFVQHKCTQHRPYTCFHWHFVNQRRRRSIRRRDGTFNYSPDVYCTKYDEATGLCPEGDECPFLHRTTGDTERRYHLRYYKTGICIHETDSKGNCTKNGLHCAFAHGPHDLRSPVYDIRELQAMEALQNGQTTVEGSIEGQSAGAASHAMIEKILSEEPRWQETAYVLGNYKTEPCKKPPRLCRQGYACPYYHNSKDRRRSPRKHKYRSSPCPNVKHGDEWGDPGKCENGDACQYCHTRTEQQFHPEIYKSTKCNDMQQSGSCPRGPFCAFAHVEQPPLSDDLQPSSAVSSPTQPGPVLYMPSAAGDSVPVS
Oligonucleotide | bound/input enrichment
CACACACUCUUCUGCGGGACCCUCAUCCUGCAGGCCCGGGCCUAUGUGGGACCGCACGUCCUGGCAGUGGUGACCCGCACAGGGUUCUGCACGGCAAAAGGGGGCCUGGUGAGCUCCAUC | 0.0997 ratio
GAUCAUGAACCACCAUCAGAAAUGAAGAUGAGAUUACCCAAGACGAGCAAAACAGCUGCGCUACAGAAAAGUAAACUUUAACCUUGCGAGUUCCUUAAUGAAGAUACAAGUUAAGAGAGC | 0.181 ratio
GUACUGCAGCAGCAGGGAAAACUGCAGGAAGCUCUGAUGCAUUAUAAAGAAGCCAUACGAAUCAGUCCUACCUUUGCUGAUGCUUAUUCUAAUAUGGGAAACACUCUAAAGGAGAUGCAG | 0.218 ratio
UCCCAAAUCCAGCAGCUAGAAGGAGCCUUGAGACAAAGCCUGGAAAUACAGGGAAGGCGAUAACAUUGUACAUUGGUUUACAUUUUUUCCCCCUGUGUUUUCUAGGGGAGGUCAUAGUGC | 0.525 ratio
AUGGAACAUUUCGAUGCGUCACUCAGUACCUAUUUCAAGGCAUUGCUGGGCCCCCGAGAUACAAGAGUCAAAGGAUGGUUUCUUCUGGACAAUUACAUCCCUACGUUUGUCUGUUCUGUU | 0.1 ratio
AGGAGGAGAUUAAAGGGUGAGAGUGGGAUGGAGGAUUGUGUCAUGGCUCUGGAGACACUGUUCAGUGUCCUGCUUUCUCUGUGCAGACUGAUGGCCCCUUACACGCCCUUUCUGACUGAG | 0.124 ratio
GGAAGUACAAUGAUGGAGAUUGAUGGUGACAAAGGCAAGCAGGGCGGGCCCACCUACUACAUAGACACUAAUGCUCUGCGUGUUCCGAGGGAGAACAUGGAGGCCAUCUCACCACUCAAG | 0.318 ratio

Further values, each from its own experiment
Molecule | target | test | system | setting | how to read | endpoint | result
PhoQ, residues 284 288 289 292 302 303 NLMGRA | PhoP, residues 12 14 15 18 19 HEGLL (Escherichia coli, UniProt P23836) | Sort-seq, item: YFP reporter | E. coli | PhoQ-PhoP variant library, together with: 10 µM Mg2+ | relative to: high Mg2+ state, higher = stronger signaling | fold induction | 18.9

For quick reference, copied from above (series 3):
Oligonucleotide | bound/input enrichment
AGGAGGAGAUUAAAGGGUGAGAGUGGGAUGGAGGAUUGUGUCAUGGCUCUGGAGACACUGUUCAGUGUCCUGCUUUCUCUGUGCAGACUGAUGGCCCCUUACACGCCCUUUCUGACUGAG | 0.124 ratio
GGAAGUACAAUGAUGGAGAUUGAUGGUGACAAAGGCAAGCAGGGCGGGCCCACCUACUACAUAGACACUAAUGCUCUGCGUGUUCCGAGGGAGAACAUGGAGGCCAUCUCACCACUCAAG | 0.318 ratio
